Published values from different studies.
Each line is one published result; not all experiments were run side by side. ± gives the spread as reported.

For `Cc1cc(NC(=O)[C@H](O)c2cc(F)cc(F)c2)ccc1-c1cnc(N)c(C(=O)NC(C)C)c1`, the Tmax was under 1 h (mouse, plasma; oral, 3 to 100 mg/kg).
`CCNC(=O)c1noc(-c2cc(C(C)C)c(O)cc2O)c1NC(=O)CCN1CCOCC1` gave a Tmax of at most 1 h (CD1 nude mouse, A-431 xenograft, lung; intraperitoneal, 80 mg/kg single).
With `CCN(CC)c1ccc2nc3c4ccccc4/c(=N/c4ccncc4)cc-3oc2c1` the Tmax was 1 h (LC-MS; NMRI mouse, plasma; oral, 20 mg/kg, noninfected and infected mice).
With `[11CH3]N1CCN(CCCOc2ccc(=O)n(-c3ccc(Cl)c(Cl)c3)n2)CC1` the Tmax was 0.5 h (radiotracer; mouse BALB/c male, liver; intravenous).
With `O=C1OC2(c3ccccc31)c1cc(I)c(O)c(I)c1Oc1c2cc(I)c(O)c1I` the Tmax was about 0.333 h (C57BL/6 mouse, female, plasma; oral, 100 mg/kg).
For `CC(C)c1cnc(-c2cc(Cl)ccc2F)cc1Nc1ccncc1C(=O)NC(CO)CO`, the Tmax was 1 to 3 h (female BALB/c mouse, 4T1 tumour, plasma; oral, 100 mg/kg twice daily, after first dose).
With `Cc1ccc(NC(=O)N2CCCN3CCC(c4ccc(C#CC5(O)CCCCC5)cc4)C3C2)cc1` (centres unmarked) the Tmax was 1 h (CD-1 mouse, brain; oral, 10 mg/kg, single dose).
For `C[C@@H](COc1ccc(F)cc1)C(=O)n1nc(N)c2ccc(CO)cc21`, the Tmax was 0.25 h (C57BL/6 mouse, plasma; oral, 10 mg/kg).
The Tmax of `CCS(=O)(=O)c1ccccc1C(=O)N1CCN(c2nc3ccc(F)cc3s2)C[C@@H]1C` is reported as 0.0833 h (mouse; intravenous, 3 mg/kg).
`COc1ccc(-c2ccn(CC[C@](C)(C(=O)NO)S(C)(=O)=O)c(=O)c2)c(F)c1` gave a Tmax of 0.33 ± 0.13 h (CF-1 mouse, female; subcutaneous, 300 mg/kg).
With `N#CC1(c2ccc3c(N)ncnn23)OC(COP(=O)(O)O)C(O)C1O` (centres unmarked) the Tmax was 1 h (LC-MS/MS; CD-1 mouse male, liver; oral, 100 mg/kg of remdesivir).
The Tmax of `CCCCCCc1ccc(Oc2ccccc2C#N)c(O)c1` is reported as 1 h (CD-1 mouse, plasma; subcutaneous, 100 mg/kg).
`COc1ccc(NC(=O)N2CCCN3CCC(c4ccc(C#Cc5ccccc5)cc4)C3C2)cc1` (centres unmarked) has a Tmax of 3 h (CD-1 mouse, plasma; oral, 10 mg/kg, single dose).
The Tmax of `CC=C1C(OC2OC(CO)C(O)C(O)C2O)OC=C(C(=O)OC)C1CC(=O)OCC1OC(OCCc2ccc(O)cc2)C(O)C(O)C1O` (centres unmarked) is reported as 0.133 h (tumour-bearing BALB/c mouse, plasma; oral, 109.2 mg/kg).
With `O=C(OC(C(F)(F)F)C(F)(F)F)N1CCC(CNS(=O)(=O)c2ccc(Cl)cc2)CC1` the Tmax was 4 h (CB17 SCID mouse, male, plasma and brain; oral, 30 mg/kg).
`CC(C)c1cnn2c(NCc3ccccc3F)cc(N[C@H]3CC[C@@H](N)CC3)nc12` gave a Tmax of 2 h (female BALB/c mouse, plasma; oral, 10 mg/kg).
The Tmax of `COc1ccc(NC(=O)N2CCCCN3[C@H](CN(C)C)[C@H](c4ccc(C#Cc5ccccc5)cc4)[C@@H]3C2)cc1` is reported as 8 h (CD-1 mouse, brain; oral, 10 mg/kg, single dose).
The Tmax of `Cc1nc(NC(=O)N2CCC[C@H]2C(N)=O)sc1-c1csc(C(C)(C)C)n1` is reported as 0.5 h (CD-1 mouse, plasma; intraperitoneal, 10 mg/kg).
The Tmax of `CN(CCCNC(=O)c1cccc(C(=O)O)c1)CCCNC(=O)c1cc(NC(=O)c2cc(NC(=O)c3cc(NC(=O)c4cc(NC(=O)[C@H](N)CCNC(=O)c5cc(NC(=O)c6cc(NC(=O)c7nc(NC(=O)c8nccn8C)cn7C)cn6C)cn5C)cn4C)cn3C)cn2C)cn1C` is reported as 1 h (C57BL/6 mouse, plasma; intraperitoneal, 120 nmol/animal).
`NC(=O)c1ccc(C(=O)NOCc2ccc(Sc3cccc(Cl)c3)c(C(F)(F)F)c2)cc1` has a Tmax of 0.25 h (male ICR mouse, plasma; oral, 60 mg/kg).
The Tmax of `CC(C)[C@H](CO)Nc1nc(Nc2ccc(C(=O)NCCNS(=O)(=O)c3cccc4c(N(C)C)cccc34)c(Cl)c2)c2ncn(C(C)C)c2n1` is reported as 1 h (mouse, kidney and serum; oral, 20 mg/kg).
With `C[C@@H]1Cc2c([nH]c3ccccc23)[C@@H](c2c(F)cc(/C=C/C(=O)O)cc2F)N1C12CC(C1)C2` the Tmax was 2 h (Balb/c nude mouse, MCF7 xenograft, tumour; oral, 5 mg/kg).
`N=C(N)NCCC[C@@H]1NC(=O)[C@H](Cc2c[nH]c3ccccc23)NC(=O)[C@@H](CC2CCCCC2)NC(=O)[C@@H]2CCCN2C(=O)[C@@H](NC(=O)CCc2ccccc2)CCCNC1=O` has a Tmax of 0.462 h (C57BL/6J mouse, plasma; oral, 1 mg/kg, single dose).
